Measurements collected from several papers.
± marks the error that the study gave.
Cyp2b1: Cytochrome P450 2B1 (Cyp2b1, Rattus norvegicus, UniProt P00176)
Sequence of UniProt P00176 (whole entry, looked up): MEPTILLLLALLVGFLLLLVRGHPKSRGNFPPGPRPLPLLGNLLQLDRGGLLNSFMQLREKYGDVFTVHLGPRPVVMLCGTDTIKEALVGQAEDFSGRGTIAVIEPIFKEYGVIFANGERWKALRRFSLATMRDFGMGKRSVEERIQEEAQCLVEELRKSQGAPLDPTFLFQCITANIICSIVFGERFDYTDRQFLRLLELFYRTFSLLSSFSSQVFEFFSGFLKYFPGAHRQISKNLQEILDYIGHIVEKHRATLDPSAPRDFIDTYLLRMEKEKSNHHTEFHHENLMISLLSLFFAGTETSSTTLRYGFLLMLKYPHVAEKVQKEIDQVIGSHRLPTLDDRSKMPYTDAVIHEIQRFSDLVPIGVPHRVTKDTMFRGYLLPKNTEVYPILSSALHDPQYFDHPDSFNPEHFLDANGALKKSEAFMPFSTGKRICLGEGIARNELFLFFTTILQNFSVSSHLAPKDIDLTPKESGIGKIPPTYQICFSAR
SLC10A1: Hepatic sodium/bile acid cotransporter (SLC10A1, Homo sapiens, UniProt Q14973)
Sequence of UniProt Q14973 (whole entry, looked up): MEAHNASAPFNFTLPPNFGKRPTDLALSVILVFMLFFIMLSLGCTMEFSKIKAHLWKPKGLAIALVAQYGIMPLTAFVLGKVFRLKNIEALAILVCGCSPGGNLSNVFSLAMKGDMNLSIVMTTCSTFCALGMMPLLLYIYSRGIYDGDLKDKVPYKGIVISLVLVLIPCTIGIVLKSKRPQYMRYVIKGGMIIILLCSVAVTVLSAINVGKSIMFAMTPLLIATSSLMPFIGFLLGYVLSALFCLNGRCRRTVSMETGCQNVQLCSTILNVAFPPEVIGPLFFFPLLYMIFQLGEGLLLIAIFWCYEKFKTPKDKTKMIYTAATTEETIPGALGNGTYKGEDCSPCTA
HDAC3 with NCoR2 DAD: Histone deacetylase 3, with NCoR2 DAD (HDAC3, Homo sapiens, UniProt O15379)
Sequence of UniProt O15379 (whole entry, looked up): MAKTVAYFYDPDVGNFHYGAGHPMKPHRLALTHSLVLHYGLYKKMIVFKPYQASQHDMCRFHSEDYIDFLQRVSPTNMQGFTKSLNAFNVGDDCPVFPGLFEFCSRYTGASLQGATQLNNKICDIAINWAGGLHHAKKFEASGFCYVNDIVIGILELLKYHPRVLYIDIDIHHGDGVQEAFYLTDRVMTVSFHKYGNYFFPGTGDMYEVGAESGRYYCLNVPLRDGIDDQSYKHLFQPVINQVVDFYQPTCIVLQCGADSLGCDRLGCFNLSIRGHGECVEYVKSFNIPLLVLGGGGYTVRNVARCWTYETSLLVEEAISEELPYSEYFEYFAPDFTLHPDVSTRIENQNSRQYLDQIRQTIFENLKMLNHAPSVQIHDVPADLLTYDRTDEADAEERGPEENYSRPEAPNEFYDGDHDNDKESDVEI
Sequence of UniProt P31391 (whole entry, looked up): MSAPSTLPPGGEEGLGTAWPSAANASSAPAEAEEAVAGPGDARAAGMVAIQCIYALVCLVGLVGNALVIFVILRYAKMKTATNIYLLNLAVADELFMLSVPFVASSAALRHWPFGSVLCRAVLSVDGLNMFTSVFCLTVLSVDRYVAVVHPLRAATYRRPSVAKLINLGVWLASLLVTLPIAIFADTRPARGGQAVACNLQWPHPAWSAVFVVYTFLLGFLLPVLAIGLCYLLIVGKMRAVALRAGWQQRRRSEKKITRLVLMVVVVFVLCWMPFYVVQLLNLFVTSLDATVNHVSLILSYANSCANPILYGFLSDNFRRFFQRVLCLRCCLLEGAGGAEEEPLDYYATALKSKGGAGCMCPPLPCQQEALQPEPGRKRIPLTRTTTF
Sequence of UniProt Q16774 (whole entry, looked up): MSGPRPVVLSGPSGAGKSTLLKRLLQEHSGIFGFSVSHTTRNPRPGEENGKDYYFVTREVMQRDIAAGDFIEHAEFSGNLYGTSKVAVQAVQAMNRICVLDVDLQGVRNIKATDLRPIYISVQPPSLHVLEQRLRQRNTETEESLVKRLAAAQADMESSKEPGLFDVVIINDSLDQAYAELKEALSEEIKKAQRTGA
Sequence of UniProt P52790 (whole entry, unmodified, looked up): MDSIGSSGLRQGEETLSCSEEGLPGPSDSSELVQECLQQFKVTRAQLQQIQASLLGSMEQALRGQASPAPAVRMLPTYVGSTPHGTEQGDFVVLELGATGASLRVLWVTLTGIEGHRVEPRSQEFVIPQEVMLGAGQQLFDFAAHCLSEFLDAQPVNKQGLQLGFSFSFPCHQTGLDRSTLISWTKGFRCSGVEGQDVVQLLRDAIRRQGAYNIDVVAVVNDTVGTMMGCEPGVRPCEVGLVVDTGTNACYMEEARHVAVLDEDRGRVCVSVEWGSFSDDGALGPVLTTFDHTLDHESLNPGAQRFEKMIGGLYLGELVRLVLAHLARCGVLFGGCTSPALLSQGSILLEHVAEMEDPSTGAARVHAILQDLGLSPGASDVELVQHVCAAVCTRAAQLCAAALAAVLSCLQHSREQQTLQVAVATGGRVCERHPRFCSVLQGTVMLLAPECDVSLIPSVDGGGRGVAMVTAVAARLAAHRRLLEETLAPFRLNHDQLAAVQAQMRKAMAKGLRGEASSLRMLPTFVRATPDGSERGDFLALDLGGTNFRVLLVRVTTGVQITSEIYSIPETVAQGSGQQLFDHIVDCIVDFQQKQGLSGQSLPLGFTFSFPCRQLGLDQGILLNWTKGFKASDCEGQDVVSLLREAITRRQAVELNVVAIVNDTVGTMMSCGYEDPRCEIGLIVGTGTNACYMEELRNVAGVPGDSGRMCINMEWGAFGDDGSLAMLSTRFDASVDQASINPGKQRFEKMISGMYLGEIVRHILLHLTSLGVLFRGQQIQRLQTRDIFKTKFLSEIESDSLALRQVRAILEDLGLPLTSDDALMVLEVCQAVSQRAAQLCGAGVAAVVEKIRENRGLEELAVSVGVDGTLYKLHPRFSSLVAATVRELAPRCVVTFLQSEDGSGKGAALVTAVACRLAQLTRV
Sequence of UniProt P20309 (whole entry, looked up): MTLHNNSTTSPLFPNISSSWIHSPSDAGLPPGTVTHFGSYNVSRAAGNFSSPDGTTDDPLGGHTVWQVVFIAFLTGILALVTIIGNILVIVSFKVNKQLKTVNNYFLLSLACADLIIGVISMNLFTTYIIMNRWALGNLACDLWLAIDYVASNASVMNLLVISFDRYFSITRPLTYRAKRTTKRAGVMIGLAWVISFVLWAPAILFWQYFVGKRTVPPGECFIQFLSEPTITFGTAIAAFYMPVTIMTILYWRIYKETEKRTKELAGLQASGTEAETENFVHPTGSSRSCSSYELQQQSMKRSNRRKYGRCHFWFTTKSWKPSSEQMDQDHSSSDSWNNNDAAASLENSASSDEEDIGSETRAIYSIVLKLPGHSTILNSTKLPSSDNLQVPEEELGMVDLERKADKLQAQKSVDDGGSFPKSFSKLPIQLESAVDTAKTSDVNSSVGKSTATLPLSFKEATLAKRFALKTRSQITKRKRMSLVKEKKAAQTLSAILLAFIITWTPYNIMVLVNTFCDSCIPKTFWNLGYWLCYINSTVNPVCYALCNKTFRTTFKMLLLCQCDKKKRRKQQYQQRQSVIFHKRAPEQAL
Sequence of UniProt Q14432 (whole entry, looked up): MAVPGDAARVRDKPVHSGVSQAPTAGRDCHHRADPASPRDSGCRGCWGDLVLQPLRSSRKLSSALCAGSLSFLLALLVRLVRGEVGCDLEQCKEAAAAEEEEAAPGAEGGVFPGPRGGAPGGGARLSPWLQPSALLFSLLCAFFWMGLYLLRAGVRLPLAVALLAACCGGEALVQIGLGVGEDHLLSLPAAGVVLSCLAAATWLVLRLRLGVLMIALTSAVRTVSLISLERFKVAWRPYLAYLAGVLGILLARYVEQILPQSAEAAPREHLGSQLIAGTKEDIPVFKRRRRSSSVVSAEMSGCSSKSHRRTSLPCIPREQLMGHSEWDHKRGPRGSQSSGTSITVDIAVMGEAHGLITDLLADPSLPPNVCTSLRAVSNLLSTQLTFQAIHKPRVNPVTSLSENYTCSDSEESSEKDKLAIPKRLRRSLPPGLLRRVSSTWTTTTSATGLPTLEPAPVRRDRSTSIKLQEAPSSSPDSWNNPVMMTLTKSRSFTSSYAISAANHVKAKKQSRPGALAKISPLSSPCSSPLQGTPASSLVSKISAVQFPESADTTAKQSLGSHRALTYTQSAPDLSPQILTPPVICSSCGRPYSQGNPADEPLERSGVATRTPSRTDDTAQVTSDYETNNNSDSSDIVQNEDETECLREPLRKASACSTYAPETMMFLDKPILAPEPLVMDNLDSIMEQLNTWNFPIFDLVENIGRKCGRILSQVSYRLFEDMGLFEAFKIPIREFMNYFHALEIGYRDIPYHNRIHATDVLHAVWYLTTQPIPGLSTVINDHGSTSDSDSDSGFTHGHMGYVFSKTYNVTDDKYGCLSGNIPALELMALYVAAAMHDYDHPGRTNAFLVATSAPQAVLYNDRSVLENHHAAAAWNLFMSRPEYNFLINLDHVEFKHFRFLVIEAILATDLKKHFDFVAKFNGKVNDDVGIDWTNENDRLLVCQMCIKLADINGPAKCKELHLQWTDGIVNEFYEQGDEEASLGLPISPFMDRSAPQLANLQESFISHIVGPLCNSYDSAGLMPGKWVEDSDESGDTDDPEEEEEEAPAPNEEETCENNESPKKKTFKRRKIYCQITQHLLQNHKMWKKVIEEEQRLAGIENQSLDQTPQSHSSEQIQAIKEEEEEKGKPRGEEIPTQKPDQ

Compound	target	assay	system	conditions	Ki [µM]
O=c1cc(-c2ccccc2)oc2c1ccc1ccccc12	Cyp2b1	fluorimetric PROD	recombinant supersomes	6 min, pH 7.6, added: pentoxyresorufin	13 ± 2.6
COC(=O)C1=C(C)NC(C)=C(C(=O)OCCN(C)Cc2ccccc2)C1c1cccc([N+](=O)[O-])c1 (stereo not shown)	SLC10A1	taurocholate uptake, inhibitor	NTCP-expressing HEK293	added: 10 µM taurocholate	309 ± 144
CNC(=O)[C@@]12C[C@@H]1[C@@H](n1cnc3c(NC)nc(C#C[c-]4cccc4)nc31)[C@H](O)[C@@H]2O.[Fe+2].c1cc[cH-]c1	Muscarinic acetylcholine receptor M3 (CHRM3, Homo sapiens, UniProt P20309)	radioligand binding (PDSP)	–	–	1.7
O=C(NO)c1cncc(OS(=O)(=O)Oc2ccc3ccccc3c2)c1	HDAC3 with NCoR2 DAD	enzyme activity, inhibitor, fluorogenic	–	–	0.273
Nc1nc2c(ncn2[C@@H]2O[C@H](COP(=O)(O)O)[C@@H](O)[C@H]2O)c(=O)[nH]1	GUK1 (Homo sapiens, UniProt Q16774)	substrate inhibition, NADH-coupled	–	KCl 50 mM	3870
Nc1ccn([C@H]2CC[C@@H](CO)O2)c(=O)n1	SLC10A1	taurocholate uptake, inhibitor	NTCP-expressing HEK293	added: 10 µM taurocholate	2040 ± 1510
Cc1ccc([C@H]2C[C@@H]2COc2cc(NCc3nnc(C)s3)nc(C)n2)nc1	cGMP-inhibited 3',5'-cyclic phosphodiesterase 3A (PDE3A, Homo sapiens, UniProt Q14432)	enzyme activity, inhibitor, IMAP fluorescence polarization	–	added: cAMP substrate	> 50
COc1cc2nc(N3CCN(C(=O)C4COc5ccccc5O4)CC3)nc(N)c2cc1OC (stereo not shown)	SLC10A1	taurocholate uptake, inhibitor	NTCP-expressing HEK293	added: 10 µM taurocholate	41.2 ± 7.1
C#Cc1ccc2c(=O)cc(-c3ccccc3)oc2c1	Cyp2b1	fluorimetric PROD	recombinant supersomes	6 min, pH 7.6, added: pentoxyresorufin	> 25
OC[C@H]1OC(O)[C@H](O)[C@@H](O)[C@@H]1O (stereo partly shown)	Hexokinase-3 (HK3, Homo sapiens, UniProt P52790, R480W)	substrate inhibition	–	mutant R480W, partial substrate inhibition model, added: ATP 20 mM	2900 ± 800
C#Cc1cccc(-c2cc(=O)c3ccccc3o2)c1	Cyp2b1	fluorimetric PROD	recombinant supersomes	6 min, pH 7.6, added: pentoxyresorufin	> 25
O=C(/C=C/c1cccc(OS(=O)(=O)Oc2ccc(C(F)(F)F)cc2)c1)NO	HDAC3 with NCoR2 DAD	enzyme activity, inhibitor, fluorogenic	–	–	0.041
O=c1n(CCCN2CCN(c3cccc(Cl)c3)CC2)nc2ccccn12	Somatostatin receptor type 4 (SSTR4, Homo sapiens, UniProt P31391)	–	–	–	> 10

For quick reference, copied from above:
Compound	target	assay	system	conditions	Ki [µM]
COC(=O)C1=C(C)NC(C)=C(C(=O)OCCN(C)Cc2ccccc2)C1c1cccc([N+](=O)[O-])c1 (stereo not shown)	SLC10A1	taurocholate uptake, inhibitor	NTCP-expressing HEK293	added: 10 µM taurocholate	309 ± 144
